Published values of several laboratories.
Numbered parts are unrelated; each lists some results of a single study. Several values in a cell are separate wells, animals, samples, runs or records.
UniProt Q8IZX4, sequence (whole entry, unmodified, looked up): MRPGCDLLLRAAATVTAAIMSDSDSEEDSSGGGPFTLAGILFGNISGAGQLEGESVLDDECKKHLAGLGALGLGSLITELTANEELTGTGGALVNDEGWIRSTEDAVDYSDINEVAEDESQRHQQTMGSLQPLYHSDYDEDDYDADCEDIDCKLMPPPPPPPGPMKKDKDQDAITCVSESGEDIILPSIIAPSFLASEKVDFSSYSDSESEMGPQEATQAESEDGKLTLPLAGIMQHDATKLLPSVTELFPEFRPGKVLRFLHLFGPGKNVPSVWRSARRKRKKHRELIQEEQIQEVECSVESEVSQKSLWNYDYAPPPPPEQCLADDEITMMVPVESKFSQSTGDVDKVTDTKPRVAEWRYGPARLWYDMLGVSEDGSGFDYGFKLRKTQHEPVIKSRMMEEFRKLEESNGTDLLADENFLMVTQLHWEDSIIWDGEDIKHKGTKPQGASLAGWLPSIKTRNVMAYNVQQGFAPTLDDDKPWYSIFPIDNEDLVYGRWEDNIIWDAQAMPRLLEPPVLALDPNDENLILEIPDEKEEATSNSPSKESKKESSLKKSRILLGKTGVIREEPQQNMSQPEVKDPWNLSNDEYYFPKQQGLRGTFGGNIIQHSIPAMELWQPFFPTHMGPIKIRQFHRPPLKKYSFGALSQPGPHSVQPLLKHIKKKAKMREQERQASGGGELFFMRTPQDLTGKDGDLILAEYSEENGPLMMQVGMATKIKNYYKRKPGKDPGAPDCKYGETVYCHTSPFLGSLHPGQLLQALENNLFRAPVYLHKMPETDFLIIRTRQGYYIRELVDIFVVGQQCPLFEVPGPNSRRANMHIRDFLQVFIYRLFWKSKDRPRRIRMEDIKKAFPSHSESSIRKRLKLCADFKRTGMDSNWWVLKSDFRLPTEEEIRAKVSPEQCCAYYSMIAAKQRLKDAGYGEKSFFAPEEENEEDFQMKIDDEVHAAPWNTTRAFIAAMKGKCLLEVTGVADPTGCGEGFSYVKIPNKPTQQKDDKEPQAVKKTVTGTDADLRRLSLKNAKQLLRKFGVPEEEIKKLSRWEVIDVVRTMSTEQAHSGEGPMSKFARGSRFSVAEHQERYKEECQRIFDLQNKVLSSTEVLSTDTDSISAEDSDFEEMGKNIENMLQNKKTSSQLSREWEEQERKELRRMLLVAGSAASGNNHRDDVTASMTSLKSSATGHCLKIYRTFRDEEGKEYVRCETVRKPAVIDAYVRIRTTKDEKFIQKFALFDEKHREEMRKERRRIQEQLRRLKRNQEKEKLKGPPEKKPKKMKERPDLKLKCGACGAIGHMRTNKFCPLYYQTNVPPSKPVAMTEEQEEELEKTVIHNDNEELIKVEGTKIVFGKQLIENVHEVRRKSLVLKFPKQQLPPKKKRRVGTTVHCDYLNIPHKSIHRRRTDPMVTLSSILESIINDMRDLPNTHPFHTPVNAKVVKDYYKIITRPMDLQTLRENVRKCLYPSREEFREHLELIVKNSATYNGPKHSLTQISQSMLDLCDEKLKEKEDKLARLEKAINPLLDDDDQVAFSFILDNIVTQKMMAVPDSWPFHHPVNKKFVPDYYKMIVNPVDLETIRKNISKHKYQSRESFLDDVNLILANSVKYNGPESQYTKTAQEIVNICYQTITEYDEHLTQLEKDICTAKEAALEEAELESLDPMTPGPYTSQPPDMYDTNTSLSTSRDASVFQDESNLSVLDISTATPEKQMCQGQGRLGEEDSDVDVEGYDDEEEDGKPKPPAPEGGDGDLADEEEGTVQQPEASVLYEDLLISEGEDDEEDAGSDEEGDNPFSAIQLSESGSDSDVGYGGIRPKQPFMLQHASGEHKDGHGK

Block 1
Target: Alpha-1A adrenergic receptor (ADRA1A, Homo sapiens, UniProt P35348)
UniProt P35348, sequence (whole entry, looked up): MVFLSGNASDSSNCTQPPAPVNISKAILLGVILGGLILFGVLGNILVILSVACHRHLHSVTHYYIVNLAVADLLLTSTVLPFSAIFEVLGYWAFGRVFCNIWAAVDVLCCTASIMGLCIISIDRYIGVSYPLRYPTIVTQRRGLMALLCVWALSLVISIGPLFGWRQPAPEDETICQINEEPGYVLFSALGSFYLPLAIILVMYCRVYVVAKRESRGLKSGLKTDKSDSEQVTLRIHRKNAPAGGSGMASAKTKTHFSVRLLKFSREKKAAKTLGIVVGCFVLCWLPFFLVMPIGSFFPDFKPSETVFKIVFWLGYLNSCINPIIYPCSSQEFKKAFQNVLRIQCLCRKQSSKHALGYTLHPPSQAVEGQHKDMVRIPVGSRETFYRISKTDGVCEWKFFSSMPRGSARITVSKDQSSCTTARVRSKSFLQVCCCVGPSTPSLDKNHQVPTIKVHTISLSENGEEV
Observed: binding
Technique: radioligand binding
Tested at: 10 µM
| SMILES | inhibition |
| --- | --- |
| CCOCCn1cc(C(=O)Nc2ccc(-n3nc(-c4cccnc4)cc3C(F)(F)F)cn2)ccc1=O | 29.3% |
| Cc1c[nH]c2nccc(Oc3c(F)cc(Nc4cc(Cl)nc(N)n4)cc3F)c12 | -7.18% |
| CC(=O)Nc1nc(CN2CCC[C@H](Cc3cc(C)nc(C)c3)C2)cs1 | -1.89% |
| C[C@@]1(Cc2ccc(C#N)cc2)C(=O)N(c2cc(Cl)cc(Cl)c2)c2ncc(C(=O)NC3(c4nc(C5CCC5)no4)CC3)n21 | -1.65% |
| O=C(Nc1cnc(Oc2ccc(F)cc2)nc1)N1CCc2ncccc2[C@@H]1c1ccc(F)cc1 | -3.5% |
| CN(C)C(=O)Cn1cc(-c2nc([C@@](C)(c3ccc(-c4cnc(N)nc4)cc3)C3CC3)no2)cn1 | 4.68% |
| COc1cc(-c2cn(C3CCc4ccccc4N(CC(F)(F)F)C3=O)nn2)ccc1-n1ccc(C)n1 (stereo not drawn) | -27.3% |
| Cc1cc(C)c(-n2ccn3nc(-c4cccnc4)cc23)cc1NC(=O)c1cc(C#N)cc(S(F)(F)(F)(F)F)c1 | -3.02% |
| CC(=O)Nc1c(F)cc(C(=O)N[C@H]2CC[C@H](O)CC2)cc1O[C@@H](C)c1ccccc1 | -12.8% |
| CC1=C(C#N)[C@@H](c2ccc3[nH]nc(C)c3c2)C(C#N)=C(c2ccc(Cl)cc2)N1 | -11% |
| O=C(Nc1ccc(-n2nc(-c3cccnc3)cc2C(F)(F)F)cn1)c1ccc(-c2ccccc2)c(F)c1 | 1.9% |
| CS(=O)(=O)NCC[C@H](NC(=O)c1cncc2c1cnn2-c1ccc(F)cc1)c1ccnc(S(C)(=O)=O)c1 | -3.82% |
| COc1cccc(CNC(=O)c2nc3scc(COCc4ccc(C(=O)O)cc4)c3c(=O)[nH]2)c1 | -1.51% |
| Cc1nc(N2CC[C@@H](O)C2)ncc1-c1cc(C(F)(F)F)cc2[nH]ncc12 | 15.7% |
| Cc1c(NC(=O)c2cc(C(N)=O)nc3cc(F)ccc23)c(C(F)(F)F)nn1Cc1ccc(C(C)(C)C)cc1 | 5.25% |
| O=C(Nc1cccnn1)N1CCC(=Cc2cccc(Oc3ccc(C(F)(F)F)cn3)c2)CC1 | 10.3% |
| Nc1c(C(=O)NCc2ccc(C(=O)NCCCC3CCCCC3)cc2)cnn1-c1ccccc1 | 36.9% |
| COCc1nc2cnc3cc(-c4c(C)noc4C)c(OC[C@H]4CCNC4)cc3c2n1[C@H](C)c1ccccc1 | 0.31% |
| CN([C@@H]1CCc2c(CC(=O)O)c3cc(S(C)(=O)=O)ccc3n2C1)S(=O)(=O)c1ccc(F)cc1 | -12% |
| CCCOc1ccc([C@H]2[C@H](C(=O)O)[C@@H](c3ccc4c(c3)OCO4)CN2CC(=O)Nc2c(CC)cccc2CC)cc1 | -9.09% |
| O=C([C@H]1C[C@H](O)CN1c1ccc(Cl)cc1)N1CC2COCC(C1)N2Cc1ccc(Cl)cc1 | 7.02% |

Block 2
Organism: Plasmodium berghei
Action: inhibitor
Cells: Huh-7
Strain: liver stage
Tested at: 10 µM
Time: 24 h
Relative to: untreated control
| SMILES | infection rate [%] |
| --- | --- |
| CC(CCc1ccccc1)NCC(O)c1ccc(O)c(C(N)=O)c1 (stereo not drawn) | 89.3 |
| C=CCc1ccc(O)c(OC)c1 | 128 |
| COC(=O)Nc1nc2cc(C(=O)c3ccccc3)ccc2[nH]1 | 78.9 |
| COc1ccc(OC)c(C(O)CNC(=O)CN)c1 (stereo not drawn) | 94.8 |
| N[C@@H](Cc1cc(I)c(Oc2ccc(O)c(I)c2)c(I)c1)C(=O)O | 88.5 |

Block 3
Cell line: mouse MPNST tumor cells
Technique: high-content nuclear imaging
Measured: cell number
Tested at: 10 µM
Time: 12 h
Setting: mean of 2 replicates
Relative to: plate mean
Reading: higher = more cells
| Structure (SMILES) | nuclei count |
| --- | --- |
| CC(C)(C)NC[C@H](O)COc1nsnc1N1CCOCC1 | 0.513 z-score |
| CCC1(c2ccccc2)C(=O)NCNC1=O | 2.31 z-score and 2.27 z-score |
| CC1CCN(C(c2ccc(F)cc2)c2ccc(C(C)C(=O)O)cc2-c2ccc(C(F)(F)F)cc2)CC1 (stereo not drawn) | 4.32 z-score |
| CC(=O)OC[C@H]1O[C@@H]([S-])[C@H](OC(C)=O)[C@@H](OC(C)=O)[C@@H]1OC(C)=O.CCP(CC)CC.[Au+] | -5.99 z-score |

Block 4
SMILES: CC(C)n1cnc(-c2ccc(F)cc2)c1-c1ncc(C(=O)Nc2ccc(N3CCN(C)CC3)cc2)[nH]1
Technique: phase 2a trial
Host: idiopathic pulmonary fibrosis patients
| dose | setting | patients with increased interferon-gamma [%] |
| --- | --- | --- |
| 30 mg once daily | grade 2 | 0 |
| 60 mg once daily | grade 4 | 0 |
| 30 mg once daily | grade 1 | 0 |
| all dose arms pooled | grade 3 | 0 |
| 60 mg once daily | grade 5 | 0 |

Block 5
Host: human
Sample: microsomes or S9
Tested at: 2 µM
Time: 0.5 h
| Compound | remaining compound |
| --- | --- |
| CNC(=O)[C@@H]1C[C@H](Oc2ccccc2)CN1C1CCN(C(=O)NC(C)C)CC1 | 87.7% |
| O=C(Nc1nccs1)c1cc2ccc3cccnc3c2[nH]1 | 23.4% |
| Cc1nc(N2CCN(C)CC2)nc2c1C(=O)CC(c1ccco1)C2 (stereo not drawn) | 45% |
| CS(=O)(=O)NCC(=O)N1Cc2ccccc2C(c2ccccc2)C1 (stereo not drawn) | 96.3% |

Mixed results
| SMILES | tested on | test | system | setting | how to read | measurement | result |
| --- | --- | --- | --- | --- | --- | --- | --- |
| CC(=O)N[C@@H](Cc1c[nH]c2ccccc12)C(=O)N[C@@H](CCC(=O)C=[N+]=[N-])C(=O)OC(C)C | – | UPLC-MS/MS | EL4 tumor, C57BL/6 CES1-/- mice, tumor | subcutaneous, 0.3 mg/kg DON equivalent daily, 5 days | higher = more metabolite | ribulose/xylulose level | 1.16e+06 a.u. and 1.39e+06 a.u. and 1.54e+06 a.u. and 1.92e+06 a.u. and 1.28e+06 a.u. and 1.38e+06 a.u. |
| COc1ccc(-c2c(Nc3ccccn3)[nH]c3c(C4=CCCCC4)c(-c4ccccc4)nn3c2=O)cc1 | – | – | human, plasma | oral, 50 mg QD | – | Ctau | 1150 ng/mL and 1090 ng/mL and 1190 ng/mL |
| Oc1ccc(-c2nc(-c3ccncc3)c(-c3ccc(F)cc3)[nH]2)cc1 | Transcription initiation factor TFIID subunit 1-like, BD2 (TAF1L, Homo sapiens, UniProt Q8IZX4) | thermal stability, DSF | – | 10 µM | – | ΔTm | -0.32 °C |
